# Published values of several laboratories.
# Each numbered part is a random draw from the data of one study; scales do not carry over between parts. Substitutions count along the parent as printed.

# Set 1 — technique: DHFR PCA, deep sequencing; sample: yeast; added: (+)-ABA 0.39 µM; baseline: wild-type fitted maximum; direction: higher = stronger binding
# Target: ABI1, truncated, D143A, DHFR fusion (Arabidopsis thaliana)
# Setting: methotrexate growth selection, single substitutions
# Parent: PYL1, truncated, DHFR fusion (Arabidopsis thaliana); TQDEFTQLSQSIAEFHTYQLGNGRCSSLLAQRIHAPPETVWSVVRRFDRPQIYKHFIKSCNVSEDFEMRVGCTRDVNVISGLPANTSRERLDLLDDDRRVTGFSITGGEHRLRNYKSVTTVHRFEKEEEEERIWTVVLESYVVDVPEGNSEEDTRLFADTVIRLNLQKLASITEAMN; partner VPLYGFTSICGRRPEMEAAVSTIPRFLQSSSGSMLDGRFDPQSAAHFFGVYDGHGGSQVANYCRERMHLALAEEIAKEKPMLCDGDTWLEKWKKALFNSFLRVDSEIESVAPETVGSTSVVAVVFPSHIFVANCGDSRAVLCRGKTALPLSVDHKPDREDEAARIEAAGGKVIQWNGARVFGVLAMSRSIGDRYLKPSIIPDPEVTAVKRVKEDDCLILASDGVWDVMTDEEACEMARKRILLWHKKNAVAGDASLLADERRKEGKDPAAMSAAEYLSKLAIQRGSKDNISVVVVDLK
Variant,relative binding score [%]
S80C,16
T73K,8.35
R123Y,2.97
C25F,-14.1
R32Q,31.8
G102T,-7.44
E152A,33
G21F,0.369
S87C,26.8
I133P,70.4
G108D,-6.25
H16I,-9.87
K116C,-2.94
E147Y,24.3
D92Q,-10.9

# Set 2 — technique: protein binding microarray; molecule type: double-stranded DNA, one strand shown; sample: in vitro; concentration: not given; baseline: not given; direction: higher = stronger binding
# Target: Histone acetyltransferase KAT6A, both winged helices, GST fusion (KAT6A, Homo sapiens, UniProt Q92794, residues 1-181)
# Setting: 8-mer, flanks averaged, mean of 2 arrays, mostly near background
# Target sequence (chain): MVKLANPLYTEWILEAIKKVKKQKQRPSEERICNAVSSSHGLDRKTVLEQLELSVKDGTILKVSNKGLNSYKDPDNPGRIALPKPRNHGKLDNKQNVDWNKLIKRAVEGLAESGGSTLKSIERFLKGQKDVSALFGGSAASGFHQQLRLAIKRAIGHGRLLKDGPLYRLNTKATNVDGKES
Oligonucleotide,E-score
CACCCATC,-0.0834
CGGGAGGA,0.0357
CTAAGTGA,-0.00637
CGTGAGGC,0.00926
ATGGTCTG,-0.145
ACAGGAAT,-0.196
ACGTAACG,0.0414
AAGAGTCA,-0.218
CTTTAGTA,-0.177
AATGATAT,-0.007
ATAGTGTA,-0.185
AATAAGCC,0.0474
GCGACTGA,0.171
TCAGTCCA,-0.148
GCATACGA,-0.102
CCGTCGCC,0.305
AAACAGCT,-0.05
GAAGATCA,-0.0502
GACCTCGA,0.0328
CCCTATAG,-0.127
AAAAAGGC,-0.0997
ATAATTAT,-0.0133
TGTTCCAA,-0.152
ATTGACGG,0.281
AACAAAGT,-0.0967

# Set 3 — technique: RNA Bind-n-Seq; molecule type: RNA; sample: in vitro; concentration: 365 nM; baseline: no-protein control; direction: higher = stronger binding
# Target: RNA binding protein fox-1 homolog 2, RRM domain, GST-SBP tag (RBFOX2, Homo sapiens, UniProt O43251-10, residues 100-194)
# Setting: natural RNA segment, single round, ends assumed
# Shared flanks, not repeated: GGGAGUUCUACAGUCCGACGAUC … UGGAAUUCUCGGGUGCCAA
# Target sequence (chain): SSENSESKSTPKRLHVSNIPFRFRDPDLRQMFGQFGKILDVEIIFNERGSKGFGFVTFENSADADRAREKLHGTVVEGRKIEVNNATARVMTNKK
Oligonucleotide,RBNS enrichment (R)
CUAGCGUAAGCACUGAGGCAGUGUGCAGUGCUCAGGCAGCAGCAAACAUUUCCCGGGGGUGGUUUUGAACCUGCUUGGGUGGUUGUGUGGUGCUGACGCUGCCACUGCCC,0.253
GAAACAGUUUAACAGAAAAAUGAAAUUUAAGCACAAAAAAUUUAAGAGAUUUUAUGUUUAAAAUGGCAUUUAGCACAGUAUUUAACAUUCUUGGUCACAAAGCUAUUUAA,0.559
GAUUUUGCAGAACCUUUGGUUUUGGACAGUUUCAUUUUUUUGGAUUUGGGAUAGAUUACAUAGGAGUAUGGAGUAUGCUGUAAAUAAAAAUACAAGCUAGUGCUUUGUCU,0.449
GUCCUGUAUCCUGGAGUAUUAUGUCUCCCCACCUUCUGCAGUUUUCUCUGAACAUGUAUGUUGCCCAUGGUGGGAGCGUGGUCACUGUGCAGUUGUGCACAGAUGUCUUU,1.22
GCCAUGCAAAUGCCAGCAGCUUAAUGGAUUUCAUGGAAUGAAAUACCGUGAUUAACUCAUAGCUACAUAUCAUUGCAUAAAUGGGAUUUAUCUUUUUUCUCACUUAUUUU,0.456
CCUCACGGGUCACCCCAGCCCUCUGCAAAGCCUUGCCGUGCUAUGUUUCAGGUUCACGUUCAGCUCUGACCUUGAGUUCAUUUCCAGUGCUUGCCUUCUCUCCAAGGCCA,0.485
AACCAGGCUUUGUGGGGGGUGAGAGAAUACAGACACAAGUGGCAGGAUUCAGAUGGAAGCUUCGCAAGGCUGGGGGCCGAGGACCACCCACUUCUCUUUCCCAGCCCUAG,0.513
UUCUCAAUCCCUGGUAAUCACCUCCCUUUUACAUGGACAGACUUGAGGUGAGGCCUAAGUAUGAGGCACCUGAAGAUAAAACCAAUGGGCAGAACCAAUGGCCCCAGUCG,0.603
CACAGCACUCUAUCUCUCAGAGUCUGGAUAAGAAUUCCCAUGCUUGUUGGGACGAGACCAACUGUGCUGUUGCUAUGGGACCUGGAGGAGGGUUAGGCAUGGGUGACACC,3.57
UCACUUGGCAAAUGUAACGGCUCAGGUACCCUGGCUUCCUUCCCAGAAACAAGCCUUGCCUGUGCAUCCUGGAGAGUUAGGUCCUUCAGAAGGCCAGAGCUGGGACAAGC,1.86
CGUGACUCCCGCCUCCUCCCUGUGCUCUCUGGCUCUGGACUGUGACUGCGCCUGGAUUCUGCCAUUGCGACACAUUUUUGUGCCUUUCAGCCCCUGGUGUCUGCAGUGGG,0.334
GACCCUUUUUAAACAAUGCUGAGCAGGCCCUGAGCUAUAAUCAACGGUGAGCUUUAAUGUCUAUGCUGACAGUUAGGUUUUGCUCUCUUUUGUAACAGGUUACGUAGACC,0.338

# Set 4 — technique: protein-binding microarray; molecule type: double-stranded DNA, one strand shown; sample: in vitro; concentration: 940 nM top; setting: 60-bp whole probe; added: salmon DNA 0.4 mg/ml; baseline: random background probes; direction: higher = stronger binding; shared flanks, not repeated: GCCTAGCAC … GTCTTGATTCGCTTGACGCTGCTG
# Target: Interferon regulatory factor 5, full length, phosphomimetic (IRF5, Homo sapiens, UniProt Q13568-2, residues 1-514, S451D/S453D/S456D/S462D)
Oligonucleotide,fitted relative affinity [z-score]
GACGGACTGGACTTTCGGGACGTGCTA,0.411
CTCATTCGTCATTTCACAGTGTGCTAG,0.714
TTAAGTTCCGGTTTCGGTTAGTGCTAG,10.2
TCAGATCTGCCGTCCCACACTGTGCTA,0.0981
GACGATTTCAGGTCCGAGACGTGCTAG,0.0896
TTAGGTTTCCTGATCCTTTAGTGCTAG,0.49
TTAGGTTTCGACACTGGTTTAGTGCTA,8.26
GACGATATCAGACTGGATACGTGCTAG,-0.325
TTAGATTCCAGTCTCGATTAGTGCTAG,3.5
GACGGACTGATTATCCTGACGTGCTAG,-0.563
GACGGTATCGGGTTCCGGGACGTGCTA,5
GACGATATCGGGTATCGAAACGTGCTA,1.83
GACGAACTGAGTCACGAGACGTGCTAG,-0.262
CACCCCGCCCCTCCTTGGCCGTGCTAG,0.0864
TCATTTCCAATTCTCTTACTGTGCTAG,1.52
TTAGATTTAAGTTTCGATTAGTGCTAG,8.13
TCATATTGCTTTCTCTTACTGTGCTAG,1.91
TTTGGTATCGGTTTCGGTTAGTGCTAG,15.3
TTAGGTTCCCTTATCCTTTAGTGCTAG,0.666
TTAGATATCAGACCGGATTAGTGCTAG,-0.48
GACGAAATCAGTATCGAGACGTGCTAG,2.34
TTACGTTTCGGTATCGGTTAGTGCTAG,11.6
CTATTTTTCACCTGCACTCAGTGCTAG,1.36

# Set 5 — technique: RNA Bind-n-Seq; molecule type: RNA; sample: in vitro; concentration: not given; baseline: input RNA pool; direction: higher = stronger binding
# Target: RING finger protein unkempt homolog, zinc fingers 1-6, GST-SBP tag (UNK, Homo sapiens, UniProt Q9C0B0, residues 30-357)
# Chain of UniProt Q9C0B0 (30-357, looked up): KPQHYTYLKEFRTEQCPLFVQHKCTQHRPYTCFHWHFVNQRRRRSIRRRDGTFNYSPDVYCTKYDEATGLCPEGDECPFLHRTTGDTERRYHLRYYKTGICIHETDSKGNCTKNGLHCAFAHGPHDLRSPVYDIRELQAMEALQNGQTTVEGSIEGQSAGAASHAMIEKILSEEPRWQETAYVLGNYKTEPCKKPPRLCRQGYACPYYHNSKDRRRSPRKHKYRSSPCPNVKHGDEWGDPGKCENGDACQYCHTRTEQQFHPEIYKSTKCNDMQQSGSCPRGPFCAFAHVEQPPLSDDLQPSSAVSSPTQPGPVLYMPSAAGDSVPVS
# Setting: RNA with constant flanks, human-mouse chimeric sites, ends assumed
# Shared flanks, not repeated: GGGAGUUCUACAGUCCGACGAUC … CAACAGAGGAUUGAGCAUCA
Oligonucleotide,bound/input enrichment [ratio]
GAGCGUCUUGCCCGCACUGGGAUCAUCGUGACCACUAGUGAGGCUGUCCUCCUACAGCUGGUAGCUGACAAAGACCACCCGAAGUUCAAGGAAAUUCAGAAUCUAAUUAAGGCGAGUGCC,0.175
CCAAGUGAUUCAUCCCAAGGACAGGCAACCCCAUUUGAUGCCUGGACUGAUGACAGUAUGGAAGGGCCUAGUCAAAAUGUUGAAGCUGAGUCAAUUCAGGAUGCCAUGAGUAUGGAAGAG,0.277
UUGCUACUAACUCCAUGGGUCAAGUUCCUGUGGGAAUCAUACAGGCAGUGUUUGGACCUUCUUCGAAACAAUUCUAGAGUAGAGCGCCUGUACCAUGAUAUCGCCCAACAAGCUUUCAAA,0.155
CUGUGUGUGCUGAAUAAAUGGCUUGUAAAGAAGUUUUUCCAAGCUGUACCCAUGUACGUUAUUAUAGUUGCUGCAAAAUGUUCUUCCUGAUAUUGAUUUUAUUUGUUAACUGAAGGUCUC,0.646
AAAGCCCAAGUAUUUUGAAAAAAUUCAAACAGAUUUAACAAGGGUAGCCAGCUUGGAGUCUAGCAACUUGCCAAUGUGUUUACCAAUCUGGGGGCUUGUUUUUCUUUUCUUCUUUCAAAU,0.346
AGAUUCCCCCUCCUGAGACCUCCUCCGAAAUUGGCAUCUCUUACAGAUGCCUCAUCCCCUGUUAGCGUUUUAGUUUGGACCACCCAGCCUUGGACGAUUCCCGCCAACCAGGCAAUUUGC,1.23
CAGGGCACAGCACCUACCCCCUCCUCCUUUCCACACCUGCAAACUCUUUUGCCUGGGCUGAAUAUUUAGUGUAAUUACAUCUCAGCUUUGAGGGCUCCUGUGGCAAAUUCCCGGAUUAAA,0.529
AAAGAGUGGAUAGAGUGUGCACACGGGAUCGGUGGGACUCGGGCAGAAAAGGAGUGCAAGAUAGAGUUCGAUGACUUCGAAGAGUGCUUGCUUCGGUACAAAACGAUGAGGCGAAUGCAU,0.292
CCCCAAUACCAUUUGCAGGUCUGGAACUGCACUCUCUUUUUUAAAAAACAUGUAUACAUUUUAGGGCUGUAGAUUUACUUUCCUAUUUUUGUUUUUCUUGCUUAUUCUUUGAGCACAGAA,1.83
CAGCUGCAGACAGAGAAGGAUGAGAAGGAGCUGUAUAAGGUACAUUUGAAGAAUACAGAAAUAGAAAAUACGAAGCUUGUGUCAGAGAUACAGACUUUAAAGAAUUUAGAUGGGAACAAA,2.61
AUCAAAUACUUUGGGGACAUCAUUAGUGUGGGACAGAGACUGUUGCAAGGAGCUCGGAUCUUAGGGAUUCCAGUUAUCAUAACGGAACAAUACCCUAAAGGUCUUGGCAGCACCGUUCAA,0.169

# Excerpt of the above (set 1):
Variant,relative binding score [%]
S87C,26.8
R32Q,31.8
E147Y,24.3
G108D,-6.25
S80C,16
C25F,-14.1
E152A,33
